Experimental data of several laboratories.
Protocols differ between the studies behind these lines. Values joined by “and” are separate records of one study, mostly repeats; a detail may differ. ± marks the error that the study gave.
PRSS1: Serine protease 1 (PRSS1, Bos taurus, UniProt P00760)
MC4R: Melanocortin receptor 4 (MC4R, Homo sapiens, UniProt P32245)
BCHE: Cholinesterase (BCHE, Equus caballus, UniProt P81908)
Oprk1: Kappa-type opioid receptor (Oprk1, Mus musculus, UniProt P33534)
NPY2R: Neuropeptide Y receptor type 2 (NPY2R, Homo sapiens, UniProt P49146)
Urease: Urease (Canavalia ensiformis, UniProt P07374)
Cnr2: Cannabinoid receptor 2 (Cnr2, Mus musculus, UniProt P47936)

SMILES	target	test	test system	setting	Ki
C[C@@H]1C(=O)O[C@H]2C1CC[C@@]1(C)[C@H](O)CC[C@@]13C[C@]2(O)OO3 (stereo partly shown)	calmodulin-dependent phosphodiesterase 1	cAMP hydrolysis, inhibitor			6.1 µM
COc1c(OCCOCCOCCOCCOCCOCCOCCOc2cccc(C(=O)C3CCN(CCc4ccc(F)cc4)CC3)c2OC)cccc1C(=O)C1CCN(CCc2ccc(F)cc2)CC1	5-hydroxytryptamine receptor 2A (HTR2A, Homo sapiens, UniProt P28223)	ligand displacement, radioligand			0.032 µM
CC[C@H](C)[C@H](NC(=O)[C@@H]1CSSC[C@H](NC(=O)[C@H](Cc2ccc(O)cc2)NC(=O)CNC(C)=O)C(=O)N[C@@H](CO)C(=O)N[C@@H](CCCNC(=N)N)C(=O)N[C@@H](CO)C(=O)N[C@@H](Cc2ccc(O)cc2)C(=O)N2CCC[C@H]2C(=O)N2CCC[C@H]2C(=O)N[C@@H](C(C)C)C(=O)N1)C(=O)N1CCC[C@H]1C(=O)N[C@@H](CC(=O)O)C(N)=O	PRSS1	enzyme activity, inhibitor			0.09 µM
CC[C@H](C)[C@H](NC(=O)CN)C(=O)N[C@H](C(=O)N[C@@H](CC(N)=O)C(=O)N[C@H](C(=O)N[C@@H](CC(C)C)C(=O)N[C@@H](CCC(N)=O)C(=O)N[C@@H](CCCCN)C(=O)N[C@@H](Cc1ccc(O)cc1)C(=O)N[C@@H](Cc1ccc(O)cc1)C(=O)N[C@H]1CSSC[C@@H]2NC(=O)[C@H](CCCCN)NC(=O)[C@H](CCCNC(=N)N)NC(=O)CNC(=O)[C@H](CCCNC(=N)N)NC(=O)[C@H]([C@@H](C)O)NC(=O)[C@H](CO)NC(=O)[C@@H]3CSSC[C@H](NC(=O)[C@H](CCCNC(=N)N)NC(=O)CNC(=O)CNC(=O)[C@H](CCCNC(=N)N)NC(=O)[C@H](C(C)C)NC(=O)[C@H](CCCNC(=N)N)NC1=O)C(=O)N[C@@H](C)C(=O)N[C@@H](C(C)C)C(=O)N[C@@H](CC(C)C)C(=O)N[C@@H](CO)C(=O)N[C@@H](CSSC[C@@H](C(=O)N[C@@H](CCCNC(=N)N)C(=O)N[C@@H](CCCNC(=N)N)C(=O)N[C@@H](CCCCN)C(=O)N[C@@H](CCCCN)C(N)=O)NC2=O)C(=O)N[C@@H](CC(C)C)C(=O)N1CCC[C@H]1C(=O)N[C@@H](CCCCN)C(=O)N[C@@H](CCC(=O)O)C(=O)N[C@@H](CCC(=O)O)C(=O)N[C@@H](CCC(N)=O)C(=O)N[C@@H]([C@@H](C)CC)C(=O)NCC(=O)N[C@@H](CCCCN)C(=O)N3)[C@@H](C)O)[C@@H](C)CC	MC4R	ligand displacement in cells			0.11 µM
CC(C)=CCCC1(C)C=Cc2c(ccc3cc(-c4cc(O)cc(O)c4CC=C(C)C)oc23)O1 (stereo not shown)	BCHE	enzyme activity, inhibitor			0.78 µM
CC1=C[C@H](O/C=C2/C(=O)O[C@H]3c4c(ccc(C)c4C)[C@H](O)[C@@H]23)OC1=O (racemic)	RMS3 (Lathyrus oleraceus, UniProt A0A109QYD3)	cell-free assay, inhibitor			21.5 µM
O=C(N[C@@H](Cc1ccc2ccccc2c1)C(=O)CCl)OCc1ccccc1	PRSS1				> 100 µM
Cc1cc(O)c(I)c(C)c1C[C@H](N)C(=O)N[C@H](C)C(=O)N[C@@H](Cc1ccccc1)C(=O)N[C@@H](Cc1ccccc1)C(N)=O	Oprk1	ligand displacement, radioligand		cell membranes	0.298 µM
CC[C@H](C)[C@H](NC(=O)CN)C(=O)N[C@H](C(=O)N[C@@H](CC(N)=O)C(=O)N[C@H](C(=O)N[C@@H](CC(C)C)C(=O)N[C@@H](CCC(N)=O)C(=O)N[C@@H](CCCCN)C(=O)N[C@@H](Cc1ccc(O)cc1)C(=O)N[C@@H](Cc1ccc(O)cc1)C(=O)N[C@H]1CSSC[C@@H]2NC(=O)[C@H](CCCCN)NC(=O)[C@H](CCCNC(=N)N)NC(=O)CNC(=O)[C@H](CCCNC(=N)N)NC(=O)[C@H]([C@@H](C)O)NC(=O)[C@H](CO)NC(=O)[C@@H]3CSSC[C@H](NC(=O)[C@H](CCCNC(=N)N)NC(=O)CNC(=O)CNC(=O)[C@H](CCCNC(=N)N)NC(=O)[C@H](C(C)C)NC(=O)[C@H](CCCNC(=N)N)NC1=O)C(=O)N[C@@H](C)C(=O)N[C@@H](C(C)C)C(=O)N[C@@H](CC(C)C)C(=O)N[C@@H](CO)C(=O)N[C@@H](CSSC[C@@H](C(=O)N[C@@H](CCC(N)=O)C(=O)N[C@@H](CCC(N)=O)C(=O)N[C@@H](CCC(N)=O)C(=O)N[C@@H](CCC(N)=O)C(N)=O)NC2=O)C(=O)N[C@@H](CC(C)C)C(=O)N1CCC[C@H]1C(=O)N[C@@H](CCCCN)C(=O)N[C@@H](CCC(=O)O)C(=O)N[C@@H](CCC(=O)O)C(=O)N[C@@H](CCC(N)=O)C(=O)N[C@@H]([C@@H](C)CC)C(=O)NCC(=O)N[C@@H](CCCCN)C(=O)N3)[C@@H](C)O)[C@@H](C)CC	MC4R	ligand displacement in cells			0.254 µM
CC(=O)N[C@@H](CCCNC(=N)N)C(=O)N[C@@H](Cc1ccc(O)cc1)C(=O)N[C@@H](CCCNC(=N)N)C(=O)N[C@@H](CC(C)C)C(=O)N[C@@H](CCCNC(=N)NC(=O)NCCCCN)C(=O)N[C@@H](Cc1ccc(O)cc1)C(N)=O	NPY2R	ligand displacement, radioligand			> 5 µM
CN(Cc1ccccc1)CP(=O)(O)O	Urease	inhibitor		pH 7	> 1000 µM
CCN1CCN(C2=Nc3cc(Cl)ccc3Nc3ccccc32)CC1	5-hydroxytryptamine receptor 2C (HTR2C, Homo sapiens, UniProt P28335)	ligand displacement, radioligand			0.024 µM and 0.016 to 0.046 µM
CC(C)[C@H](NC(=O)[C@@H]1CCCN1C(=O)[C@@H](N)CCCCN)C(=O)N[C@@H](CCC(=O)O)C(=O)N[C@H](CN[C@@H](CCCNC(=N)N)C(=O)N[C@@H](CCC(N)=O)C(=O)N[C@H](C(=O)O)[C@@H](C)O)Cc1ccccc1	Plasmepsin I (PMI, Plasmodium falciparum, UniProt Q7KQM4)				31 ± 5 µM
Cc1cc2c(cc1Cl)-c1c(c(C(=O)NN3CCCCC3)nn1-c1ccc(Cl)cc1Cl)C2	Cnr2	ligand displacement, radioligand			0.212 µM
CP(=O)(O)CNCc1ccccc1	Urease	enzyme activity, inhibitor, absorbance		pH 7	571 µM
CC[C@H](C)[C@H](NC(=O)CN)C(=O)N[C@H](C(=O)N[C@@H](CC(N)=O)C(=O)N[C@H](C(=O)N[C@@H](CC(C)C)C(=O)N[C@@H](CCC(N)=O)C(=O)N[C@@H](C)C(=O)N[C@@H](Cc1ccc(O)cc1)C(=O)N[C@@H](Cc1ccc(O)cc1)C(=O)N[C@H]1CSSC[C@@H]2NC(=O)[C@H](CCCCN)NC(=O)[C@H](CCCNC(=N)N)NC(=O)CNC(=O)[C@H](CCCNC(=N)N)NC(=O)[C@H]([C@@H](C)O)NC(=O)[C@H](CO)NC(=O)[C@@H]3CSSC[C@H](NC(=O)[C@H](CCCNC(=N)N)NC(=O)CNC(=O)CNC(=O)[C@H](CCCNC(=N)N)NC(=O)[C@H](C(C)C)NC(=O)[C@H](CCCNC(=N)N)NC1=O)C(=O)N[C@@H](C)C(=O)N[C@@H](C(C)C)C(=O)N[C@@H](CC(C)C)C(=O)N[C@@H](CO)C(=O)N[C@@H](CSSC[C@@H](C(=O)N[C@@H](CCCNC(=N)N)C(=O)N[C@@H](CCCNC(=N)N)C(=O)N[C@@H](CCCCN)C(=O)N[C@@H](CCCCN)C(N)=O)NC2=O)C(=O)N[C@@H](CC(C)C)C(=O)N1CCC[C@H]1C(=O)N[C@@H](CCCCN)C(=O)N[C@@H](CCC(=O)O)C(=O)N[C@@H](CCC(=O)O)C(=O)N[C@@H](CCC(N)=O)C(=O)N[C@@H]([C@@H](C)CC)C(=O)NCC(=O)N[C@@H](CCCCN)C(=O)N3)[C@@H](C)O)[C@@H](C)CC	MC4R	ligand displacement in cells			0.079 µM
O=C(Nc1cccc(-c2nn[nH]n2)c1)c1cc(-c2ccccc2)cc(C(F)(F)F)c1	Beta-lactamase CTX-M-14 (Escherichia coli, UniProt Q9L5C7)	enzyme activity, inhibitor, absorbance		pH 7	79.6 µM
Cc1cc(O)c2c(c1)C(=O)c1c(O)ccc(O)c1C2=O	BCHE	enzyme activity, inhibitor			12.3 µM
CCOC(=O)[C@](CC)(CCCSCCOCCOCCNc1ccc([N+](=O)[O-])c2nonc12)NC(=O)c1ccc(C2CC2)c(Cc2ccc(F)cc2)n1	Cnr2	ligand displacement, radioligand		cell membranes	0.033 µM
Cc1cc2c(cc1Cl)Cc1c(C(=O)NC3CC4CC(C3C)C4(C)C)nn(-c3ccc(Cl)cc3Cl)c1-2 (stereo not shown)	Cnr2	ligand displacement, radioligand			0.35 µM
CCCCCc1cc(O)c2c(c1)OC(C)(C)C1CCC(C(=O)OC3OC(C(=O)O)C(O)C(O)C3O)=CC21 (stereo not shown)	Cytochrome P450 2B6 (CYP2B6, Homo sapiens, UniProt P20813)	enzyme activity, inhibitor	human, liver microsomes	pH 7.4	2.6 µM
CC(=O)N[C@@H](CCCNC(=N)N)C(=O)N[C@@H](Cc1ccc(O)cc1)C(=O)N[C@@H](CCCNC(=N)NC(=O)NCCCCN)C(=O)N[C@@H](CC(C)C)C(=O)N[C@H](CCCNC(=N)N)C(=O)N[C@@H](Cc1ccc(O)cc1)C(N)=O	NPY2R	ligand displacement, radioligand			> 5 µM
O=P(O)(O)CNCc1ccccc1	Urease	inhibitor		pH 7	> 1000 µM
O=C(NCCN1CCC2(CC1)C(=O)NCN2c1ccccc1)c1ccc2ccccc2c1	Alpha-2C adrenergic receptor (ADRA2C, Homo sapiens, UniProt P18825)	ligand displacement, radioligand			0.6 µM
CC[C@H](C)[C@H](NC(=O)[C@H](CCC(=O)O)NC(=O)[C@H](Cc1ccc(F)cc1)NC(=O)[C@@H](C)NC(=O)[C@@H](N)Cc1ccc(O)cc1)C(=O)N[C@H](C(=O)NCC(N)=O)[C@@H](C)CC	Oprk1	ligand displacement, radioligand		cell membranes	> 1 µM

Repeated from above:
SMILES	target	test	test system	setting	Ki
CC(C)[C@H](NC(=O)[C@@H]1CCCN1C(=O)[C@@H](N)CCCCN)C(=O)N[C@@H](CCC(=O)O)C(=O)N[C@H](CN[C@@H](CCCNC(=N)N)C(=O)N[C@@H](CCC(N)=O)C(=O)N[C@H](C(=O)O)[C@@H](C)O)Cc1ccccc1	Plasmepsin I (PMI, Plasmodium falciparum, UniProt Q7KQM4)				31 ± 5 µM
C[C@@H]1C(=O)O[C@H]2C1CC[C@@]1(C)[C@H](O)CC[C@@]13C[C@]2(O)OO3 (stereo partly shown)	calmodulin-dependent phosphodiesterase 1	cAMP hydrolysis, inhibitor			6.1 µM
